Published values collected from several papers.
Compare with care: the assays were run in different laboratories. Values joined by “and” are separate records of one study, mostly repeats; a detail may differ. ± marks the error that the study gave.
IDE: Insulin-degrading enzyme (IDE, Homo sapiens, UniProt P14735)

Compound	target or system	assay	test system	setting	how to read	measurement	value
CC[C@@H]1C=CC(=O)O[C@@H]1C[C@@H](O)[C@H](C)[C@H](OC)[C@@H](C)Cc1ccccc1		mass spectrometry	human liver microsomes	concentration not given		number of metabolites	17
Cc1cccc(CNC(=O)c2cn(CCNC(=O)c3ccccc3S)c3cc4c(cc3c2=O)OC(F)(F)O4)n1			Sprague-Dawley rat, male, plasma	intravenous, 20 mg/kg of parent drug		AUC(0-t)	1490 ± 125 ng·h/mL
C=CC(=O)N1CCC(c2ccc(C(N)=O)c(-c3ccc(Oc4ccccc4)cc3)n2)CC1			relapsed/refractory mantle cell lymphoma patients	oral, dose not given, part, all doses, CTCAE v4.03		number of TEAEs	45
N[C@@H](C[18F])C(=O)O		PET imaging	female athymic nude mice, U-87 MG xenograft	intravenous, 30 min	reference: tumour over muscle	tumour-to-muscle ratio	1.43 ± 0.2
C=CC(=O)Nc1cc(Nc2nccc(-c3cn(C)c4ccccc34)n2)c(OC)cc1N(C)CCN(C)C		storage stability	human dried blood spot samples	30 d, -80 °C, LQC level	reference: nominal concentration	percentage recovery	45.6%
C=CC(=O)N1CCC(Oc2cc3c(Nc4ccc(Cl)c(Cl)c4F)ncnc3cc2OC)CC1			Sprague-Dawley rat, male, plasma	oral, 2 mg/kg, 1 weeks pretreatment, with: Schisandrin A 20 mg/kg daily pretreatment		Vz/F	1.44 ± 0.5 L/kg
CN(C)C(=N)N=C(N)N		measured: gastrointestinal disorders	healthy men	oral, dose not given, 8 days, treatment-emergent, crossover trial		subjects with adverse event	9.1%
O=C(/C=C/c1ccc(O)cc1)c1ccc(O)cc1O	HBL-1			0.1 µM, 120 h		viability	118%
O=C(Nc1cccc(-c2cccc(-c3nc4ccccc4[nH]3)c2)c1)NC1CC1c1ccccc1 (centres unmarked)	Plasmodium yoelii		17XL	384-well		IC50	> 20 µM
CO[C@H]1C[C@@H]2CC[C@@H](C)[C@@](O)(O2)C(=O)C(=O)N2CCCC[C@H]2C(=O)O[C@H]([C@H](C)C[C@@H]2CC[C@@H](OC(=O)NCCOCCOCCOCCOCCOCCOCCOCCOCCC(=O)N3CCc4cc(Cn5nc(-c6ccc7oc(N)nc7c6)c6c(N)ncnc65)ccc4C3)[C@H](OC)C2)C[C@@H](O)[C@H](C)/C=C(\C)[C@@H](O)[C@@H](OC)C(=O)[C@H](C)C[C@H](C)/C=C/C=C/C=C/1C			human, plasma	intravenous, 3 mg, cycle 1 day 1, arithmetic mean		Tmax	1 h
Cc1nc2ccc(OCc3ccc(C(F)(F)F)cc3)cc2[nH]1			Balb/c mouse, male, brain	intravenous, 1 mg/kg, 3 h	reference: tissue over plasma	tissue/plasma ratio	3.2 ± 0.5
CCN1CCN(Cc2ccc(NC(=O)c3ccc(C)c(NC(=O)c4cncc(-c5cccs5)c4)c3)cc2C(F)(F)F)CC1		LC-MS/MS	C57BL/6 mouse, plasma	intraperitoneal, 20 mg/kg single dose, 2 h		plasma concentration	357 ng/mL and 285 ng/mL and 288 ng/mL
CC(C)NC(=O)N1CCCCN2[C@@H](CO)[C@H](c3ccc(C#Cc4ccccc4F)cc3)[C@@H]2C1	IDE	enzyme activity, inhibitor, fluorogenic kinetic		with: Mca-RPPGFSAFK(Dnp)-OH substrate		EC50	1.2 µM
CC[C@H](C)[C@H](NC(=O)[C@H](Cc1ccccc1)NC(=O)[C@H](CCC(=O)O)NC(=O)[C@H](CCCCNC(=O)COCCOCCNC(=O)COCCOCCNC(=O)CC[C@H](NC(=O)CCCCCCCCCCCCCCCCC(=O)O)C(=O)O)NC(=O)[C@H](C)NC(=O)[C@H](C)NC(=O)[C@H](CCC(N)=O)NC(=O)CNC(=O)[C@H](CCC(=O)O)NC(=O)[C@H](CC(C)C)NC(=O)[C@H](Cc1ccc(O)cc1)NC(=O)[C@H](CO)NC(=O)[C@H](CO)NC(=O)[C@@H](NC(=O)[C@H](CC(=O)O)NC(=O)[C@H](CO)NC(=O)[C@@H](NC(=O)[C@H](Cc1ccccc1)NC(=O)[C@@H](NC(=O)CNC(=O)[C@H](CCC(=O)O)NC(=O)C(C)(C)NC(=O)[C@@H](N)Cc1cnc[nH]1)[C@@H](C)O)[C@@H](C)O)C(C)C)C(=O)N[C@@H](C)C(=O)N[C@@H](Cc1c[nH]c2ccccc12)C(=O)N[C@@H](CC(C)C)C(=O)N[C@H](C(=O)N[C@@H](CCCNC(=N)N)C(=O)NCC(=O)N[C@@H](CCCNC(=N)N)C(=O)NCC(=O)O)C(C)C		12-lead Holter ECG	healthy humans	subcutaneous, 1.5 mg once weekly, 42 h, steady state	reference: placebo	QTcB change from baseline	8.7 ms
O=C(Nc1nc2cccc(-c3ccc(CN4CCS(=O)(=O)CC4)cc3)n2n1)C1CC1		measured: general and administration-site disorders	rheumatoid arthritis patients	oral, 300 mg once daily, 4 weeks, any relatedness		treatment-emergent adverse events	10%
Cc1nc(-c2cnc(NC(C)C)n(C)c2=O)ccc1Oc1ccnc(-c2cnn(C)c2)c1			DBA/1 mouse, female, plasma	oral, 30 mg/kg, single dose		apparent clearance	1.83 mL/min/kg
CC[C@@H]1CN(C(=O)NCC(F)(F)F)C[C@@H]1c1cnc2cnc3[nH]ccc3n12			healthy subjects, plasma	oral, extended-release formulation, population PK model		zero-order absorption duration (D2)	6.11 h
COc1cccc(C#Cc2ccc([C@@H]3[C@H](CO)N4C(=O)CN(C(=O)Cc5cccnc5)C[C@@H]34)cc2)c1	IDE	enzyme activity, inhibitor, fluorogenic kinetic		with: Mca-RPPGFSAFK(Dnp)-OH substrate		EC50	6.2 µM
Cc1cc([C@H]2C[C@H]3[C@@H](CF)SC(N)=N[C@@]3(c3ccc(F)cc3F)CO2)on1			male 129/SVE wild-type mouse, brain	subcutaneous, 30 mg/kg, 7 h		brain concentration	0.037 µM
N#C[C@@]1(c2ccc3c(N)ncnn23)O[C@H](CO)[C@@H](O)[C@H]1O			beagle dog male, plasma	oral capsule, 6.5 mg/kg, 3 h		plasma concentration	6.52 µM
CCc1cc(C(=O)NC)c2nccc(N3CCc4c(cc(Cn5ccnc5)cc4-c4cn(C)nc4C(F)(F)F)C3=O)c2c1			Sprague Dawley rats	oral, 100 mg/kg twice daily, day 3	reference: day 1	body weight change	3.6%
CC(C)(C(=O)N1CCOc2c(C#N)cncc2C1)C(F)F		measured: Lymphadenopathy	human	oral, 10 mg once daily, 14 days, multiple ascending dose		subjects with adverse event	0%
CCOC(=O)CCNc1cc(N2CCc3ccccc3CC2)nc(-c2ccccn2)n1	HBL-1			0.1 µM, 120 h		viability	120%
